Assay results collected from several papers.
Protocols differ between the studies behind these lines. Several values in a cell are separate wells, animals, samples, runs or records. ± marks the error that the study gave.
EGFR: Epidermal growth factor receptor (EGFR, Homo sapiens, UniProt P00533)
EGFR L858R/T790M: Epidermal growth factor receptor (EGFR, Homo sapiens, UniProt P00533, L858R/T790M)
EGFR C797S/L858R/T790M: Epidermal growth factor receptor (EGFR, Homo sapiens, UniProt P00533, C797S/L858R/T790M)
EGFR L858R: Epidermal growth factor receptor (EGFR, Homo sapiens, UniProt P00533, L858R)
EGFR T790M: Epidermal growth factor receptor (EGFR, Homo sapiens, UniProt P00533, T790M)

Oc1ncnc2c1sc1sc3c(O)ncnc3c12  IC50 (EGFR; enzyme activity, inhibitor, TR-FRET): 290 nM
Cc1c(C(=O)NNC(=S)Nc2ccc(Cl)cc2)nnn1Cc1nc2ccccc2[nH]1  IC50 (EGFR; enzyme activity, inhibitor): 86 nM
C=CC(=O)Nc1cc(Nc2nccc(-c3c(-c4cccc(OC)c4)n(C)c4ccccc34)n2)c(OC)cc1N(C)CCN(C)C  IC50 (EGFR L858R/T790M; enzyme activity, inhibitor): 6 nM
Cc1ccc2oc(-c3c4c(N)n[nH]c(=O)c4nn3-c3ccc(NC(=O)/C=C/CN(C)C)cc3)c(C)c2c1  IC50 (EGFR; enzyme activity, inhibitor, ELISA): > 1000 nM
Cc1nc(-c2ccc(NC(=O)c3cccs3)cc2Cl)no1  IC50 (EGFR; kinase activity, inhibitor, luminescence; limit value): < 10000 nM
CN(C1COC1)C(C)(C)/C=C(\C#N)C(=O)N1CCC[C@H]1Cn1nc(-c2ccc(Oc3ccccc3)cc2F)c2c(N)ncnc21  IC50 (EGFR; enzyme activity, inhibitor): > 3000 nM
C#Cc1cccc(Nc2ncnc3cc(OC)c(OCCCN4CCOCC4)cc23)c1  IC50 (Epidermal growth factor receptor (EGFR, Homo sapiens, UniProt P00533, del746-750); inhibitor; 30 min, room temperature, with: 80.8 µM ATP): 1.23 nM and 1.2 nM
O=C(NCCN1CCN(C(=O)c2cc(-c3ccc(Cl)cc3)nc3ccccc23)CC1)c1cc(-c2ccc(Cl)cc2)nc2ccccc12  IC50 (EGFR C797S/L858R/T790M; enzyme activity, inhibitor): > 10000 nM
C/C(=N\NC(N)=S)c1c(O)c2ccccc2oc1=O  IC50 (EGFR; enzyme activity, inhibitor, ATP luminescence): 311 nM
O=C(Nc1nnc2c1c(-c1ccc(Cl)cc1)nc1sc(=Cc3ccco3)c(=O)n12)c1ccccc1 (mixture of isomers)  IC50 (EGFR; enzyme activity, inhibitor): 54 nM
Cc1ccc(S(=O)(=O)c2c(-c3ccccc3)c3c(C)c4ccc(C)cc4n3c3ccccc23)cc1  IC50 (EGFR; enzyme activity, inhibitor, ADP detection): 480 nM
C=CC(=O)N1CCC[C@@H](n2nc(-c3cccc(C(F)(F)F)c3)c3c(N)ncnc32)C1  IC50 (EGFR L858R; enzyme activity, inhibitor; with preincubation): 27 nM
N#Cc1cnc2cc(OCC3CCNCC3)c(F)cc2c1Nc1cc(F)c(OCc2cccc(Cl)n2)cc1Cl  IC50 (EGFR; enzyme activity, inhibitor): 4660 nM
CCCCCCCCCCOc1c(O)cc(C(=O)OC2Cc3c(O)cc(O)cc3OC2c2cc(O)c(O)c(O)c2)cc1O (centres unmarked)  IC50 (EGFR; kinase activity, inhibitor, Z′-LYTE; with: 10 µM ATP): 169.1 ± 0.15 nM
CC[C@H](C(=O)N1CCCC[C@@H]1C(=O)O[C@H](CCc1ccc(OC)c(OC)c1)c1cccc(OCC(=O)NCCC(=O)N2CCN(CCCOc3cc4c(Nc5ccc(F)c(Cl)c5)ncnc4cc3OC)CC2)c1)c1cc(OC)c(OC)c(OC)c1  IC50 (EGFR; enzyme activity, inhibitor, TR-FRET): 0.29 nM
O=C1N=C(N2N=C(c3cccs3)CC2c2ccc(F)cc2)SC1=Cc1ccc(O)cc1 (centres unmarked)  IC50 (EGFR; enzyme activity, inhibitor): 171 nM
CCCCCCCCCCCCCCOc1c(O)cc(C(=O)O[C@@H]2Cc3c(O)cc(O)cc3O[C@@H]2c2cc(O)c(O)c(O)c2)cc1O  IC50 (EGFR L858R/T790M; kinase activity, inhibitor, Z′-LYTE; with: 10 µM ATP): 33.33 ± 0.08 nM
CSC(=S)N/N=C(\C)c1ccc(S(=O)(=O)N2CCC(C)CC2)cc1  IC50 (EGFR; enzyme activity, inhibitor): 170 nM
Nc1ncnc2c1sc1sc3c(N)ncnc3c12  IC50 (EGFR; enzyme activity, inhibitor, TR-FRET): 280 nM
COCC1CN(C2CCN(c3cc(OC)c(Nc4ncc(Br)c(Nc5ccc6c(c5P(C)(C)=O)OCCO6)n4)cc3C)CC2)C1  IC50 (EGFR L858R/T790M; enzyme activity, inhibitor, TR-FRET): < 1.5 nM
COc1ccc(NC(=O)N/N=C2\CC3(CCN(C)CC3)Oc3ccccc32)cc1  IC50 (EGFR; enzyme activity, inhibitor): 77 nM
Cc1ccc(S(=O)(=O)c2c(-c3ccccc3)c3c(C)c4cc(F)ccc4n3c3ccccc23)cc1  IC50 (EGFR; enzyme activity, inhibitor, ADP detection): 380 nM
Oc1ccc(Cl)cc1-c1nc(NCCN2CCNCC2)c2ccccc2n1  IC50 (EGFR C797S/L858R/T790M; enzyme activity, inhibitor, ATP luminescence): 277 nM
O=C(Nc1ccc(-c2noc(C3CC3)n2)c(Cl)c1)c1cccs1  IC50 (EGFR T790M; enzyme activity, inhibitor, ATP luminescence): < 50000 nM
CCCCCCCCCCCCOc1c(O)cc(C(=O)OC2Cc3c(O)cc(O)cc3OC2c2cc(O)c(O)c(O)c2)cc1O (centres unmarked)  IC50 (EGFR L858R/T790M; kinase activity, inhibitor, Z′-LYTE; with: 10 µM ATP): 18.39 ± 0.09 nM
C=CC(=O)N1CCC[C@@H](n2nc(-c3cnc4[nH]ccc4c3)c3c(N)ncnc32)C1  IC50 (EGFR; cell-free assay): 13 nM
CCOC(=O)/C(=N\Nc1ccc(S(=O)(=O)Nc2ncccn2)cc1)C(=O)c1ccccc1  IC50 (EGFR T790M; enzyme activity, inhibitor, TR-FRET): 115 nM
N=c1c2sc3sc4c(=N)n(-c5ccccc5)c(=S)[nH]c4c3c2[nH]c(=S)n1-c1ccccc1  IC50 (EGFR; enzyme activity, inhibitor, TR-FRET): 2770 nM
C=CC(=O)N1CCC[C@@H](n2nc(-c3ccccc3)c3c(N)ncnc32)C1  IC50 (EGFR L858R; enzyme activity, inhibitor; with preincubation): 11 nM
CN1CCC2(CC1)C/C(=N\NC(=O)Nc1ccccc1)c1ccccc1O2  IC50 (EGFR; enzyme activity, inhibitor): 116 nM
CN1CCN(c2ccc(Nc3ncc(Cl)c(Nc4ccccc4NS(C)(=O)=O)n3)cc2)CC1  IC50 (EGFR C797S/L858R/T790M; enzyme activity, inhibitor, ELISA): 4.83 nM
N#Cc1ccc(O)c(-c2nc(NCCN3CCNCC3)c3ccccc3n2)c1  IC50 (Epidermal growth factor receptor (EGFR, Homo sapiens, UniProt P00533, C797S/del746-750/T790M); kinase activity, inhibitor, Kinase-Glo Plus; 40 min, 30 °C, with: ATP 10 µM): 220 ± 2 nM
COc1ccc(C2=NN(C3=NC(=O)C(=Cc4ccc(O)cc4)S3)C(c3ccc(F)cc3)C2)cc1 (centres unmarked)  IC50 (EGFR; enzyme activity, inhibitor): 262 nM
O=C(O[C@@H]1Cc2c(O)cc(O)cc2O[C@@H]1c1cc(O)c(O)c(O)c1)c1cc(O)c(O)c(O)c1  IC50 (EGFR; kinase activity, inhibitor, Z′-LYTE; with: 10 µM ATP): 115.2 ± 0.07 nM
NS(=O)(=O)c1ccc(-n2c(SCC(=O)Nc3ccccc3F)nc3cc4ccccc4cc3c2=O)cc1  IC50 (EGFR; kinase activity, inhibitor): 26 ± 4 nM

Some of these lines once more:
CCCCCCCCCCCCCCOc1c(O)cc(C(=O)O[C@@H]2Cc3c(O)cc(O)cc3O[C@@H]2c2cc(O)c(O)c(O)c2)cc1O  IC50 (EGFR L858R/T790M; kinase activity, inhibitor, Z′-LYTE; with: 10 µM ATP): 33.33 ± 0.08 nM
CSC(=S)N/N=C(\C)c1ccc(S(=O)(=O)N2CCC(C)CC2)cc1  IC50 (EGFR; enzyme activity, inhibitor): 170 nM
Nc1ncnc2c1sc1sc3c(N)ncnc3c12  IC50 (EGFR; enzyme activity, inhibitor, TR-FRET): 280 nM
